Published values pooled from the literature.
Lines come from different studies, so protocols differ. ± gives the spread as reported.

SMILES | assay | system | conditions | fraction unbound
COc1ccccc1NC(=O)OC1C(C)C(OC)C=COC2(C)Oc3c(C)c(O)c4c(c3C2=O)C2=NC3(CCN(CC(C)C)CC3)NC2=C(NC(=O)C(C)=CC=CC(C)C(O)C(C)C(O)C1C)C4=O (stereo not shown) | rapid equilibrium dialysis | mouse plasma |  | 0.001
CC(C)Cn1c(SCC(=O)N2CCc3ccccc3C2)nc2cc(Cl)ccc2c1=O | equilibrium dialysis | rat plasma |  | 0.001
CCCCc1oc2ccccc2c1C(=O)c1cc(I)c(O)c(I)c1 | ultracentrifugation | human plasma | 2 h | 0.0013 ± 0.0001
NC(=O)c1c(F)ccc(OCc2nc3cc(Cl)cnc3s2)c1F | equilibrium dialysis | mouse plasma | 10 µM | 0.146
O=C(Cc1ccccc1)Nc1nc2ccccc2n1Cc1ccccc1 |  | rat liver microsomes | 0.5 µM, 1 mg/mL protein | 24.2%
CO[C@H]1/C=C/O[C@@]2(C)Oc3c(C)c(O)c4c(c3C2=O)C2=NC3(CCN(CC(C)C)CC3)NC2=C(NC(=O)/C(C)=C\C=C\[C@H](C)[C@H](O)[C@@H](C)[C@@H](O)[C@@H](C)[C@H](OC(=O)c2cccc(F)c2)[C@@H]1C)C4=O |  | plasma |  | 0.02%
CCNCC#CCNc1ccnc2cc(Cl)ccc12 | equilibrium dialysis | CD-1 mouse plasma | 1 µM, 5 h, pH 7.4 | 0.155
COC1C=COC2(C)Oc3c(C)c(O)c4c(c3C2=O)C2=NC3(CCN(CC(C)C)CC3)NC2=C(NC(=O)C(C)=CC=CC(C)C(O)C(C)C(O)C(C)C(OC(=O)c2cncnc2)C1C)C4=O (stereo not shown) | rapid equilibrium dialysis | mouse plasma |  | 0.047
CC(=O)c1cnc(N)nc1N1CC[C@H]1c1nn2ccc(Cl)c2c(=O)n1-c1ccccc1 | equilibrium dialysis | human plasma | 0.5-25 µM | 0.059 to 0.175
COC1C=COC2(C)Oc3c(C)c(O)c4c(c3C2=O)C2=NC3(CCN(CC(C)C)CC3)NC2=C(NC(=O)C(C)=CC=CC(C)C(O)C(C)C(O)C(C)C(OC(=O)Nc2cscn2)C1C)C4=O (stereo not shown) | rapid equilibrium dialysis | mouse plasma |  | 0.017
CN1CCc2nc(C(=O)NC3CC(C(=O)O)CCC3NC(=O)C(=O)Nc3ccc(Cl)cn3)sc2C1 (stereo not shown) |  | plasma |  | ~0.2
CCNCCOc1c(I)cc(C(=O)c2c(CCC(C)O)oc3ccccc23)cc1I (stereo not shown) | ultracentrifugation | human liver microsomes 0.25 mg/mL protein | 2 h, pH 7.4 | 0.17 ± 0.028
COC1C=COC2(C)Oc3c(C)c(O)c4c(c3C2=O)C2=NC3(CCN(CC(C)C)CC3)NC2=C(NC(=O)C(C)=CC=CC(C)C(O)C(C)C(O)C(C)C(OC(=O)Nc2cccnn2)C1C)C4=O (stereo not shown) |  | caseum |  | 0.0096
CC(NC(=O)OC1OC(C(=O)O)C(O)C(O)C1O)c1cc(Cl)ccc1Cn1c(=S)[nH]c(=O)c2[nH]ccc21 (stereo not shown) | equilibrium dialysis | human plasma | 1 µM, 16 h, 37 °C | 0.149 ± 0.024%
COc1ccc2c(c1OCc1ccccc1)C[C@@H](C(=O)O)N(c1nc3ccc(C#N)cc3o1)C2 | equilibrium dialysis | human plasma | 1 µM, 6 h, pH 7.4 | < 0.001
Cc1ccc(O)c2c3c(nn12)CCC(C)(NC(=O)c1ccc(-n2cnc4cc(C(=O)O)ccc42)cc1Cl)C3 (stereo not shown) | equilibrium dialysis | rat plasma |  | 0.006
CCCCc1oc2ccccc2c1C(=O)c1cc(I)c(OCCN)c(I)c1 | ultracentrifugation | human liver microsomes 0.25 mg/mL protein | 2 h, pH 7.4 | 0.011 ± 0.003
COC1C=COC2(C)Oc3c(C)c(O)c4c(c3C2=O)C2=NC3(CCN(CC(C)C)CC3)NC2=C(NC(=O)C(C)=CC=CC(C)C(O)C(C)C(O)C(C)C(OC(=O)c2cccnc2)C1C)C4=O (stereo not shown) |  | caseum |  | 0.0039
O=C(N[C@@H](Cc1coc2ccccc12)B(O)O)[C@@H]1C[C@H]2CC[C@@H]1O2 |  | human plasma |  | 0.027
CCN(CC)CC#CCNc1ccnc2cc(Cl)ccc12 | equilibrium dialysis | CD-1 mouse plasma | 1 µM, 5 h, pH 7.4 | 0.236
COC1C=COC2(C)Oc3c(C)c(O)c4c(c3C2=O)C2=NC3(CCN(CC(C)C)CC3)NC2=C(NC(=O)C(C)=CC=CC(C)C(O)C(C)C(O)C(C)C(OC(=O)Nc2cnccn2)C1C)C4=O (stereo not shown) | rapid equilibrium dialysis | mouse plasma |  | 0.042
CCCCc1oc2ccccc2c1C(=O)c1cc(I)c(OCCO)c(I)c1 | ultracentrifugation | human liver microsomes 0.25 mg/mL protein | 2 h, pH 7.4 | 0.017 ± 0.001

Repeated from above:
SMILES | assay | system | conditions | fraction unbound
CC(=O)c1cnc(N)nc1N1CC[C@H]1c1nn2ccc(Cl)c2c(=O)n1-c1ccccc1 | equilibrium dialysis | human plasma | 0.5-25 µM | 0.059 to 0.175
COC1C=COC2(C)Oc3c(C)c(O)c4c(c3C2=O)C2=NC3(CCN(CC(C)C)CC3)NC2=C(NC(=O)C(C)=CC=CC(C)C(O)C(C)C(O)C(C)C(OC(=O)Nc2cscn2)C1C)C4=O (stereo not shown) | rapid equilibrium dialysis | mouse plasma |  | 0.017
CN1CCc2nc(C(=O)NC3CC(C(=O)O)CCC3NC(=O)C(=O)Nc3ccc(Cl)cn3)sc2C1 (stereo not shown) |  | plasma |  | ~0.2
